Experimental data of several laboratories.
Lines come from different studies, so protocols differ.
Target: Serine/threonine-protein kinase DCLK1 (DCLK1, Homo sapiens, UniProt O15075)
Residues used in one study (O15075 1-740): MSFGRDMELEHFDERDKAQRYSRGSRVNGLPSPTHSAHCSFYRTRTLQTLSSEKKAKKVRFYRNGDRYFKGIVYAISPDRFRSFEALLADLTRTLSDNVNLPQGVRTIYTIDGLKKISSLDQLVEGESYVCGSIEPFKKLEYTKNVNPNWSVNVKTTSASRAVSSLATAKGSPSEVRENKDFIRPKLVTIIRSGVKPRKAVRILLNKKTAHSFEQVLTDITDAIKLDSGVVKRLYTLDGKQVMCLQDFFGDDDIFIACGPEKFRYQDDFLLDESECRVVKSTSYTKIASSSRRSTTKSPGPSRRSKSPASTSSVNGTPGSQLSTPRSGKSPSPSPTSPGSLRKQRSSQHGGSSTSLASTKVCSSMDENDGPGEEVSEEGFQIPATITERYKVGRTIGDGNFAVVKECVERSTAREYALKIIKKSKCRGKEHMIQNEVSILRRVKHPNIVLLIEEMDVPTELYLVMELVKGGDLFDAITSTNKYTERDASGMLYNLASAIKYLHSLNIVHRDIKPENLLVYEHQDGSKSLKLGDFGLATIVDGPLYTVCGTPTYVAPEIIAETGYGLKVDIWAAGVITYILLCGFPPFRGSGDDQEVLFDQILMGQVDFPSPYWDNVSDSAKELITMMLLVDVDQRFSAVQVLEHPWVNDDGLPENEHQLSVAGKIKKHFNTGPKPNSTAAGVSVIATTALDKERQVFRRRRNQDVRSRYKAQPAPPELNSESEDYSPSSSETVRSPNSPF

The remaining activity of `COc1cc(N2CCN(C)CC2)ccc1Nc1nc(N)n(C(=O)NCc2ccccc2S(=O)(=O)C(C)C)n1` is reported as 1.8% (enzyme activity; 10 µM; relative to: control).
For `COc1cc(N2CCN(C)CC2)ccc1Nc1ncc2c(n1)N(C)c1ccccc1C(=O)N2CC(F)(F)F`, the TΔS was 0.23 kcal/mol (isothermal titration calorimetry; 200 µM, added: protein 20 µM).
`O=C(NC1CCC1)c1ccc2nc(-c3cccc(NS(=O)(=O)NCCN4CCCCC4)c3)cn2c1` gave a remaining activity of 100% (enzyme activity; 10 µM).
With `C=CC(=O)N1CCC(COCC(=O)N2CCN(c3nc(-c4cnc(N)nc4C(F)F)nc(N4CCOC[C@@H]4C)n3)CC2)CC1` the remaining binding was 100% (KINOMEscan; 1 µM; relative to: DMSO control).
The remaining binding of `C[C@@H](c1ccc(-n2cnc3c(N)ncnc32)cc1)N1CCc2nn(C)c(Cc3ccccc3)c2C1=O` is reported as 82% (KINOMEscan; 0.1 µM; relative to: DMSO control).
`C1=C/COCc2cc(ccc2OCCN2CCCC2)Nc2nccc(n2)-c2cccc(c2)COC/1`: “percent of control” 100% (concentration not given, gene name DCAMKL1).
`COc1cc(N2CCN(C)CC2)ccc1Nc1nc(N)n(C(=O)NCc2c(Cl)cccc2Cl)n1` has a remaining activity of 0.4% (enzyme activity; 10 µM; relative to: control).
The remaining binding of `C=CC(=O)N1CCC(C(=O)NCC(=O)N2CCN(c3nc(-c4cnc(N)nc4C(F)F)nc(N4CCOCC4)n3)CC2)CC1` is reported as 59% (KINOMEscan; 1 µM).

Repeated from above:
The remaining activity of `COc1cc(N2CCN(C)CC2)ccc1Nc1nc(N)n(C(=O)NCc2ccccc2S(=O)(=O)C(C)C)n1` is reported as 1.8% (enzyme activity; 10 µM; relative to: control).
